Measurements pooled from the literature.
A part holds a random share of what one study measured.
Chain of UniProt Q13163 (whole entry, looked up): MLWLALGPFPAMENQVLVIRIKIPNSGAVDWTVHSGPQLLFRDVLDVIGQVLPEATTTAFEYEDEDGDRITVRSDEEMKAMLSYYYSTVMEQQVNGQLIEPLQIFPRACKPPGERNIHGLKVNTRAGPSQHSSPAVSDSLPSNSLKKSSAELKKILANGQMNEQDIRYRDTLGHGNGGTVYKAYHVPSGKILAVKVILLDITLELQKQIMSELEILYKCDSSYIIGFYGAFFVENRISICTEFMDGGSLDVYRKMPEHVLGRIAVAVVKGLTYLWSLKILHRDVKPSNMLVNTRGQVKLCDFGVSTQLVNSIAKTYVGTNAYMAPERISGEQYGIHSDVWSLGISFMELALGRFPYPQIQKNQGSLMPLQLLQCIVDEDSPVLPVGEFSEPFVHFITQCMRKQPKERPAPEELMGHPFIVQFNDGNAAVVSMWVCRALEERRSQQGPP
Chain of UniProt P78368 (whole entry, looked up): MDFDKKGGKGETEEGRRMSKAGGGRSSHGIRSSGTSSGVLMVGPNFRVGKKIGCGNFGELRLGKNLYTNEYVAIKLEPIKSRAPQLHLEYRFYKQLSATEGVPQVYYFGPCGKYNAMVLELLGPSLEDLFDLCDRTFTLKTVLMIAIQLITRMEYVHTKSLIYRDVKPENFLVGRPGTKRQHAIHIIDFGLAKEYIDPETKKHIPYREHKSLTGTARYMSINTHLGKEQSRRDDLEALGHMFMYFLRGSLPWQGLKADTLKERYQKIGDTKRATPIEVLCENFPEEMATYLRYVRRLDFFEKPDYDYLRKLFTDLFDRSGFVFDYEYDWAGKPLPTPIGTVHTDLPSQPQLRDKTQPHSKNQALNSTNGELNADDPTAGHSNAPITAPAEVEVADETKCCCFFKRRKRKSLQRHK
Chain of UniProt Q8IY84 (whole entry, looked up): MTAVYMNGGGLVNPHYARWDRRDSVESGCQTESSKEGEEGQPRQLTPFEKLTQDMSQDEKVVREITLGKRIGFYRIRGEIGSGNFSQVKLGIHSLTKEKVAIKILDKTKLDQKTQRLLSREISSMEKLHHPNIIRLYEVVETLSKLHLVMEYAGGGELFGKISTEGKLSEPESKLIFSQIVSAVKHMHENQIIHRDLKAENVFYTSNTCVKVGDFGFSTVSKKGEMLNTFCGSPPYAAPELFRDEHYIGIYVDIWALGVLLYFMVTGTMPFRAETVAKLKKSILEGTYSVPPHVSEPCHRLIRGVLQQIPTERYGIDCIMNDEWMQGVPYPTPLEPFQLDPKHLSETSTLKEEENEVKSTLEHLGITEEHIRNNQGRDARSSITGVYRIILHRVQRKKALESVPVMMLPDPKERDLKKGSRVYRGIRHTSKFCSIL
Chain of UniProt P54760 (whole entry, looked up): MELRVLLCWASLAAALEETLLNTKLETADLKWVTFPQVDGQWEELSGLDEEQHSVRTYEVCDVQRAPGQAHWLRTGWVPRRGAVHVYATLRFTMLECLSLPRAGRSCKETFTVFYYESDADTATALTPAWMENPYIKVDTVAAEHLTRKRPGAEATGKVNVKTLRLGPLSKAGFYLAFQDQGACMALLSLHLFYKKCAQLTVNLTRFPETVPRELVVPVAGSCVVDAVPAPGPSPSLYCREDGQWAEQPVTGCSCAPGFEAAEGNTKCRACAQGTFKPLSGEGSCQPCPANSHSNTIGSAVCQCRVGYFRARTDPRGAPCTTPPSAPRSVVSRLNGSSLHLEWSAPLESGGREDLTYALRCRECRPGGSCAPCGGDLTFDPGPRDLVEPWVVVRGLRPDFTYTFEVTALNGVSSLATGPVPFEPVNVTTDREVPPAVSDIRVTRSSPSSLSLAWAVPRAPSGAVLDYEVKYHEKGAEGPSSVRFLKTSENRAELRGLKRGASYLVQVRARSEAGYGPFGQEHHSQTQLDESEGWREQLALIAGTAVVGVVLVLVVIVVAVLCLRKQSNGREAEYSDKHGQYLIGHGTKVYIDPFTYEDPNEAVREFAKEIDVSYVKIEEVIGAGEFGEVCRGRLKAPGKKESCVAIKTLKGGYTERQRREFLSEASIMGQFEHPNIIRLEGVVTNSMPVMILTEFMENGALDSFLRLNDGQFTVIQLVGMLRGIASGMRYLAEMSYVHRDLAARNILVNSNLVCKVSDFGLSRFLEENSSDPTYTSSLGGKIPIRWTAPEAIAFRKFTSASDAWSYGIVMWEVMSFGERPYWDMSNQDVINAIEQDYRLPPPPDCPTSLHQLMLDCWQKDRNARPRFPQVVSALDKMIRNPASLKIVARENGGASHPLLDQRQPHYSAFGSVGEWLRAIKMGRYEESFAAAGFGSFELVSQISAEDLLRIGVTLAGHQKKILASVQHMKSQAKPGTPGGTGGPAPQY
Chain of UniProt P08581 (whole entry, looked up): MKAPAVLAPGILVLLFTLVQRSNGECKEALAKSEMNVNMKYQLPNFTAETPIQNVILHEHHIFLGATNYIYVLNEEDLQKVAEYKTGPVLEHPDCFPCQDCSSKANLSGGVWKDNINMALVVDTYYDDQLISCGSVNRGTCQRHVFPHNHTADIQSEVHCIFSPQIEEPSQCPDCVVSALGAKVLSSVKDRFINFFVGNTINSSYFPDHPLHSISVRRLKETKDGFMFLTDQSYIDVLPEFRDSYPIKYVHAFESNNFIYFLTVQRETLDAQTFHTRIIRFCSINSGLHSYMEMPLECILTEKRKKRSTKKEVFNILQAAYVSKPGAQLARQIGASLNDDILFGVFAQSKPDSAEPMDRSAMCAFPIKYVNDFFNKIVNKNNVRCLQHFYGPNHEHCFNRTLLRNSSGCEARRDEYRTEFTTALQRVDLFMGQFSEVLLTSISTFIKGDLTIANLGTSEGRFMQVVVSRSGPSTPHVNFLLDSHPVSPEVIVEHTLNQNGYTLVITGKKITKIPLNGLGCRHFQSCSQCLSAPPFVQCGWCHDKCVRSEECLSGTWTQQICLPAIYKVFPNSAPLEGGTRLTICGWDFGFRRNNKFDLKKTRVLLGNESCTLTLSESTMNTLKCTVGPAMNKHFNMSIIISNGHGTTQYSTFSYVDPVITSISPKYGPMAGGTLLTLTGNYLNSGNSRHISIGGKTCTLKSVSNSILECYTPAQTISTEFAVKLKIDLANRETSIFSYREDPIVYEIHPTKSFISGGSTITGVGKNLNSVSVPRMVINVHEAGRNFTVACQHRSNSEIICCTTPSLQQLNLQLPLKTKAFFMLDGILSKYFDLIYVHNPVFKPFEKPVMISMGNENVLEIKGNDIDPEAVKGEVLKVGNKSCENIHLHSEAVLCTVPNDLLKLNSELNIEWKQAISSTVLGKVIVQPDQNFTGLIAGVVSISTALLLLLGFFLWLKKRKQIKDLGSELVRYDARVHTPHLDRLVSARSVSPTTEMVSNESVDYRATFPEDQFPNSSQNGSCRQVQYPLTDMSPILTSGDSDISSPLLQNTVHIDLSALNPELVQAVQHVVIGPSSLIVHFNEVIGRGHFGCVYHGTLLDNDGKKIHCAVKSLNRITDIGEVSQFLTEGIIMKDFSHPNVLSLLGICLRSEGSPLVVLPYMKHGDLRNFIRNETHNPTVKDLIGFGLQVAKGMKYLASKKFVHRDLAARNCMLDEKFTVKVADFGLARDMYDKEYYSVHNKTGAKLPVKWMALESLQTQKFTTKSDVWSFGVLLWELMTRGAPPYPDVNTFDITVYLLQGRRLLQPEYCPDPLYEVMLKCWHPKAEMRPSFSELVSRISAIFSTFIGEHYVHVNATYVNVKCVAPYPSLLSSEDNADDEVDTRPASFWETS
Chain of UniProt P37173 (whole entry, looked up): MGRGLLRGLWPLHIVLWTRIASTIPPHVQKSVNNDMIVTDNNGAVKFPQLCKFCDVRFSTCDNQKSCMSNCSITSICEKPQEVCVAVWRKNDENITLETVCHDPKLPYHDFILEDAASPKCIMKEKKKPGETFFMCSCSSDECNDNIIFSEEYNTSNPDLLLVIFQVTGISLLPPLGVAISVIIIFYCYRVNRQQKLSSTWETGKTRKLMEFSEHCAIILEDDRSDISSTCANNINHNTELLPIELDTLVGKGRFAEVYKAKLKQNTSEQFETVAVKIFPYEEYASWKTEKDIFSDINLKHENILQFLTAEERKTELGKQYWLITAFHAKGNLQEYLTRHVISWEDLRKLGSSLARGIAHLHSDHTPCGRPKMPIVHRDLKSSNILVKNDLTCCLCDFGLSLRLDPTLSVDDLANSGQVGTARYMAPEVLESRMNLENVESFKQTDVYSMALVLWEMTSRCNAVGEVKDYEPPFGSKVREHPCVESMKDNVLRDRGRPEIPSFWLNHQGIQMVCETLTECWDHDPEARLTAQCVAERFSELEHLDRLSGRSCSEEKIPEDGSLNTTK
Chain of UniProt P54646 (whole entry, looked up): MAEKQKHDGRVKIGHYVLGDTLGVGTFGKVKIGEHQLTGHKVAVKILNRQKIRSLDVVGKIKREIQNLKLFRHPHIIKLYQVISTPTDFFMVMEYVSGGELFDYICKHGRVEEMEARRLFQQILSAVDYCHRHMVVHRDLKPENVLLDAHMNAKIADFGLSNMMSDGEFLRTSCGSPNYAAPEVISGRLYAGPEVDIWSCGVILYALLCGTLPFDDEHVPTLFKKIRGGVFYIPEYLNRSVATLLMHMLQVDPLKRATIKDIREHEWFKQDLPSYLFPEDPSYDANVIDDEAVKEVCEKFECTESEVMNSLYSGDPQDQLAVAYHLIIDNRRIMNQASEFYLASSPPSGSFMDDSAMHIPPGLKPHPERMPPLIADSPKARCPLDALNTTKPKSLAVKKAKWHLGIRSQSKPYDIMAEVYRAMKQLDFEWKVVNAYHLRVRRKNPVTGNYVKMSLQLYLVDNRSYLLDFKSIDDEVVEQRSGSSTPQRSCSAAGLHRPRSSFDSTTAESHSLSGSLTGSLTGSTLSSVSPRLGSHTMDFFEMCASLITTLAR

Block 1
Structure (SMILES): CO[C@@H]1[C@H](N(C)C(=O)c2ccccc2)C[C@H]2O[C@]1(C)n1c3ccccc3c3c4c(c5c6ccccc6n2c5c31)C(=O)NC4
Observed: enzyme activity
Action: inhibitor
Concentration: 1 µM
Endpoint: inhibition
PIP4K2C (Homo sapiens, UniProt Q8TBX8): 0%
NEK5 (Homo sapiens, UniProt Q6P3R8): 0%
CDK7 (Homo sapiens, UniProt P50613): 0%
DAPK2 (Homo sapiens, UniProt Q9UIK4): 49%
NIM1K (Homo sapiens, UniProt Q8IY84): 0%
NLK (Homo sapiens, UniProt Q9UBE8): 7%
Tyrosine-protein kinase ABL1, phosphorylated (ABL1, Homo sapiens, UniProt P00519, H396P): 28%
NUAK1 (Homo sapiens, UniProt O60285): 97%
RET (Homo sapiens, UniProt P07949, V804L): 99%

Block 2
Compound: C[C@H](NC(=O)c1cnc2n1[C@](C)(Cc1ccc(C#N)cc1)C(=O)N2c1cc(Cl)c(F)c(Cl)c1)C(=O)NC1(c2ccccn2)CC1
Technique: competition with immobilised ligand
Concentration: 1 µM
Endpoint: remaining binding
MAP2K5 (Homo sapiens, UniProt Q13163); cell-free assay: 100%
ACVR1 (Homo sapiens, UniProt Q04771); cell-free assay: 97%
EPHB4 (Homo sapiens, UniProt P54760); cell-free assay: 100%
RIOK2 (Homo sapiens, UniProt Q9BVS4); cell-free assay: 100%
WNK2 (Homo sapiens, UniProt Q9Y3S1); cell-free assay: 100%
MAPK7 (Homo sapiens, UniProt Q13164); cell-free assay: 100%
SIK3 (Homo sapiens, UniProt Q9Y2K2); cell-free assay: 76%
STK25 (Homo sapiens, UniProt O00506); cell-free assay: 100%
AXL (Homo sapiens, UniProt P30530); cell-free assay: 100%
ITK (Homo sapiens, UniProt Q08881); cell-free assay: 83%
STK33 (Homo sapiens, UniProt Q9BYT3); cell-free assay: 88%
Ribosomal protein S6 kinase alpha-1, N-terminal kinase domain (RPS6KA1, Homo sapiens, UniProt Q15418); cell-free assay: 100%
HUNK (Homo sapiens, UniProt P57058); cell-free assay: 100%
PRKAA2 (Homo sapiens, UniProt P54646); cell-free assay: 100%
TBK1 (Homo sapiens, UniProt Q9UHD2); cell-free assay: 97%
Tyrosine-protein kinase JAK1, JH1 (JAK1, Homo sapiens, UniProt P23458); cell-free assay: 100%
PAK3 (Homo sapiens, UniProt O75914); cell-free assay: 100%
PHKG2 (Homo sapiens, UniProt P15735); cell-free assay: 100%
TGFBR2 (Homo sapiens, UniProt P37173); cell-free assay: 100%
Tyrosine-protein kinase ABL1, phosphorylated (ABL1, Homo sapiens, UniProt P00519, E255K); binding: 93%

Block 3
SMILES: Cc1ccc(NC(=O)c2ccnc(C(F)(F)F)c2)cc1-c1cc(OCCO)nc(N2CCOCC2)c1
Concentration: 1 µM
Endpoint: remaining binding
MAP2K5 (Homo sapiens, UniProt Q13163); competitive binding panel, measured: MEK5; reference: vehicle: 95%
SIK1 (Homo sapiens, UniProt P57059); competitive binding; SIK: 94%
AKT1 (Homo sapiens, UniProt P31749); competitive binding panel; reference: vehicle: 99%
STK38L (Homo sapiens, UniProt Q9Y2H1); competitive binding panel, measured: NDR2; reference: vehicle: 96%
CSNK1A1L (Homo sapiens, UniProt Q8N752); competitive binding panel; reference: vehicle: 100%
BUB1 (Homo sapiens, UniProt O43683); competitive binding panel; reference: vehicle: 100%
CSNK1G2 (Homo sapiens, UniProt P78368); competitive binding panel; reference: vehicle: 94%
TEC (Homo sapiens, UniProt P42680); competitive binding panel; reference: vehicle: 90%
CDKL5 (Homo sapiens, UniProt O76039); competitive binding panel; reference: vehicle: 100%
MET (Homo sapiens, UniProt P08581); competitive binding panel; reference: vehicle: 100%
PDPK1 (Homo sapiens, UniProt O15530); competitive binding panel; reference: vehicle: 100%

Block 4
Target: NUAK family SNF1-like kinase 1 (NUAK1, Homo sapiens, UniProt O60285)
Observed: enzyme activity
Action: inhibitor
Concentration: 0.5 µM
Reference: control
Endpoint: remaining activity
Residues (O60285 1-661): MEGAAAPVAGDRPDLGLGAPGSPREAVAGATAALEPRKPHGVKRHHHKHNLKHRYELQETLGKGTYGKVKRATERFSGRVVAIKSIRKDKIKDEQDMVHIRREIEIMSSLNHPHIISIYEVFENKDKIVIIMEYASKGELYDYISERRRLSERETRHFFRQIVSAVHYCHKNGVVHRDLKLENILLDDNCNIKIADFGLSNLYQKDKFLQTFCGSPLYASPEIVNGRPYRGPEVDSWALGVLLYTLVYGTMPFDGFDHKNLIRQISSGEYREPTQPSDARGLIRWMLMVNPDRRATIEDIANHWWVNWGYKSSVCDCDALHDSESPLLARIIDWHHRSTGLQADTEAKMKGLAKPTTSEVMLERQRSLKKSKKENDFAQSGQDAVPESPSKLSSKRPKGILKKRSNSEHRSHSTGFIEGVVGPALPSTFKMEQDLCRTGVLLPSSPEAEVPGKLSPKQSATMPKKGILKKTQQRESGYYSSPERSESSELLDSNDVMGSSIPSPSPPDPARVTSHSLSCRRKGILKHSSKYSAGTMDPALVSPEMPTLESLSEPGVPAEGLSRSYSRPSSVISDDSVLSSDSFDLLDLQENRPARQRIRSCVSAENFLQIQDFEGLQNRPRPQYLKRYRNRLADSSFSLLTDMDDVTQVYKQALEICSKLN
c1ccc(-c2cnc(Nc3ccc(OCCN4CCCC4)cc3)s2)cc1: 56.4%
CN([C@@H](Cc1ccc(OS(=O)(=O)c2cccc3cnccc23)cc1)C(=O)N1CCN(c2ccccc2)CC1)S(=O)(=O)c1cccc2cnccc12: 97.5%
Ic1cccc(CSc2nnc(-c3ccncc3)o2)c1: 95.1%
CN(C)C[C@H]1CCn2c(c(C3=C(c4cn(C)c5ccccc45)C(=O)NC3=O)c3ccccc32)C1: 90.9%
O=C(Nc1cccc(Nc2nccc(Nc3cccc(C(F)(F)F)c3)n2)c1)C1CC1: 67.2%
Cc1cc2ncc(-c3ccccc3)nc2cc1C: 92.3%
Cn1nc2c3c(cccc31)C(=O)c1ccccc1-2: 46.2%
COc1cc2c(cc1OC)-c1[nH]nc(Nc3cccc(F)c3)c1C2: 88.5%
CCN(CC)CCNC(=O)c1c(C)[nH]c(/C=C2\C(=O)Nc3ccc(Cl)cc32)c1C: 2.06%
CCOc1nc(NC(=O)Cc2cc(OC)ccc2OC)cc(N)c1C#N: 96.1%
O=C(NC(NC(=S)Nc1ccc(F)c([N+](=O)[O-])c1)C(Cl)(Cl)Cl)C(c1ccccc1)c1ccccc1 (stereo not shown): 95.3%
O=c1cc(-c2cccc3c2Sc2ccccc2S3)oc(N2CCOCC2)c1: 93.1%
N#C/C(=C\c1ccc(O)c(O)c1)C(=O)NCc1ccccc1: 90%
COc1cc2ncnc(Nc3cccc(Cl)c3)c2cc1OC: 75.8%
O=C1c2ccccc2-c2n[nH]c3cccc1c23: 23.9%
Nc1cccc(-c2cc3c(Oc4cccc(O)c4)ncnc3[nH]2)c1: 37%
Cc1cn(-c2cc(NC(=O)c3ccc(C)c(Nc4nccc(-c5cccnc5)n4)c3)cc(C(F)(F)F)c2)cn1: 108%
O=C1C(Cl)=C(N2C(=O)CCC2=O)C(=O)c2ccccc21: 105%
COc1cc2ncnc(Nc3ccc(O)c(Br)c3)c2cc1OC: 68.2%
C[C@@H]1CCN(C(=O)CC#N)C[C@@H]1N(C)c1ncnc2[nH]ccc12: 71.2%
CCN(CC)C(=O)c1ccc(Nc2nc(OCC3CCCCC3)c3[nH]cnc3n2)cc1: 3.67%
c1ccc(-c2[nH]ncc2-c2ccnc3ccccc23)nc1: 95.5%
Cc1nc2cc3nc(-c4cccs4)cnc3cc2n1C: 95.3%
N#Cc1c(NC(=O)c2cccc3ccccc23)sc2c1CCCC2: 97.3%

Repeated from above (block 2):
HUNK (Homo sapiens, UniProt P57058); cell-free assay: 100%
MAP2K5 (Homo sapiens, UniProt Q13163); cell-free assay: 100%
EPHB4 (Homo sapiens, UniProt P54760); cell-free assay: 100%
PRKAA2 (Homo sapiens, UniProt P54646); cell-free assay: 100%
